# Results of several laboratories.
# A part holds a random share of what one study measured. Substitutions count along the parent as printed.

# Block 1
# Target: ABI1, truncated, D143A, DHFR fusion (Arabidopsis thaliana)
# Technique: DHFR PCA, deep sequencing
# Sample: yeast
# Setting: methotrexate growth selection, single substitutions
# Together with: (+)-ABA 0.39 µM
# Relative to: wild-type fitted maximum
# Direction: higher = stronger binding
# Parent: PYL1, truncated, DHFR fusion (Arabidopsis thaliana); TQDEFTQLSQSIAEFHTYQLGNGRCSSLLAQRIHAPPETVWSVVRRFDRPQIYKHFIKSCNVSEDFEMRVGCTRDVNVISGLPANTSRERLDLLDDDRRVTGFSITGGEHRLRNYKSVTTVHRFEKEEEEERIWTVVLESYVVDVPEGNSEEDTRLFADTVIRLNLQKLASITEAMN; partner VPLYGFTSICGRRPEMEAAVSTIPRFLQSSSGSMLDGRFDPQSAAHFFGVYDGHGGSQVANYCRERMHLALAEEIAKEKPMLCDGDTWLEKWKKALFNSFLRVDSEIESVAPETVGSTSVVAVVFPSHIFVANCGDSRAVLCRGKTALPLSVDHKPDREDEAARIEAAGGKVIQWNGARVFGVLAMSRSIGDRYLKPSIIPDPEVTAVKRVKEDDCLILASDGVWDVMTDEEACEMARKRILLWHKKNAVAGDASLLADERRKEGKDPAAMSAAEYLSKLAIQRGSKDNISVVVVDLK
Change,relative binding score
R99G,-5.65%
F47I,-4.23%
H122F,-7.73%
L93K,3.95%
Q2G,19.1%
K116M,-17.2%

# Block 2
# Target: CCND1, cyclin fold, Cln2 fusion (human)
# Technique: yeast growth competition, sequencing
# Sample: yeast
# Setting: weak parent motif
# Relative to: not given
# Direction: higher = stronger binding
# Parent: GMNC docking peptide (human); KNAKRNLSSEFAN; partner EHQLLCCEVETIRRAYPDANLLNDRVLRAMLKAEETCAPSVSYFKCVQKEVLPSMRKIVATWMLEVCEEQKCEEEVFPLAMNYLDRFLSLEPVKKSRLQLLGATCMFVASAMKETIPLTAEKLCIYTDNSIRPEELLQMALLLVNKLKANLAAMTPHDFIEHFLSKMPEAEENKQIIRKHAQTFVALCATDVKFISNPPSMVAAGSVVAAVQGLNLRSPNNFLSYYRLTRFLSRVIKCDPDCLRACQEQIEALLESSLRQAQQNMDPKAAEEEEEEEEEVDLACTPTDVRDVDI
Change,normalised enrichment score
KLAKRNLSSEFAN [N2L],0.217
KNANRNLSSEFAN [K4N],0.315
KNAKRNLSSEFHN [A12H],0.373
KNAKHNLSSEFAN [R5H],0.162
KNAKRNLSLEFAN [S9L],0.87
KNAKINLSSEFAN [R5I],0.214

# Block 3
# Target: PABPC1L2, full length, GST fusion (mouse, UniProt A0ABA7IW68)
# Technique: RNAcompete
# Form: RNA
# Sample: in vitro
# Concentration: 20 nM
# Setting: 7-mer, probes averaged, single round
# Relative to: mean of 7-mers
# Direction: higher = stronger binding
# Residues (chain): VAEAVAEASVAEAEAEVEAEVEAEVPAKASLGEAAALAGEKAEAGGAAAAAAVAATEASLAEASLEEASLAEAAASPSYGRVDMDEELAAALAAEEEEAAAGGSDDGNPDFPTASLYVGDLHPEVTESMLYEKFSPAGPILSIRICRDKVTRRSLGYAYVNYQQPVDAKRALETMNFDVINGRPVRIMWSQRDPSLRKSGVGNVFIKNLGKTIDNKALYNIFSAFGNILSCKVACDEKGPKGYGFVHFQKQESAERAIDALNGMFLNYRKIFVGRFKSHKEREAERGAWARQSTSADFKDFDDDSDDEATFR
Strand,7-mer Z-score
AAAGGUU,0.387
ACUUAGA,0.000733
CUGCAUA,-0.142
ACGUAUG,-0.108
UCGUGAU,-0.4
AGCUCCC,-0.233
UGAUGAG,-0.177
GCUCUAU,-0.186

# Further values, each from its own experiment
Molecule,target,assay,test system,conditions,how to read,quantity,value
"PhoQ, residues 284 288 289 292 302 303 AMDMFI","PhoP, residues 12 14 15 18 19 LWHVM (Escherichia coli, UniProt P23836)","Sort-seq, refers to: YFP reporter",E. coli,"PhoQ-PhoP variant library, together with: 10 µM Mg2+","relative to: high Mg2+ state, higher = stronger signaling",fold induction,0.901
